{"data": "Assay results pooled from the literature", "technique": "steady-state kinetics", "B1": "TylM1 H123A (Streptomyces fradiae, UniProt P95748); chain MAHSSATAGPQADYSGEIAELYDLVHQGKGKDYHREAADLAALVRRHSPKAASLLDVACGTGMHLRHLADSFGTVEGLELSADMLAIARRRNPDAVLHHGDMRDFSLGRRFSAVTCMFSSIGALAGQAELDAALERFAAHVLPDGVVVVEPWWFPENFTPGYVAAGTVEAGGTTVTRVSHSSREGEATRIEVHYLVAGPDRGITHHEESHRITLFTREQYERAFTAAGLSVEFMPGGPSGRGLFTGLPGAKGETR", "B2": "protein (Candidatus Protochlamydia amoebophila, UniProt A0A2P9HA01); chain KNQQNSVSSTLLILKKRSLILFQFFLIIIVYHTLKDLKDTIVITASDAGAEIIPFIKIWGMLPLAICASYFFAKFYNKFGREKTFYIFSSFLLVNYLFFAFVLYPFRKFFYLENVADYLHMILPVGAKGFVAMVSYWHYTLFYLTAELWSMLILSILFWGYVSDTTSLVEAKKFYPLCMFVGNMAGIISGQLSHFLCQHLSDFMSWERTLQWMIGIVCVCGLLIMIINRRLALTTDFSAIKQKVKKQIAPSSFKDNVMDVLRTGPLLCIAVLVVGFGLTTNLIEVIWKENIRQLHPTPQAYNAYINQLTSLIGTGAVCIALLSSWIFRKFTWTQIALTTPLCLLITSSAFFSSLLMPKELLAEIASFFQFSPTQLIVTLGSICYVFSMSAKYTIFDTSKEIAFLSIETEKRTYAKSVIDSIGSRLGKSGASCFYQFLLIAFGIASEHILLIGVVSIIMIGISIFATKKLGGQLSGKNENHRFIEASHG", "B3": "trypsin (Saccharopolyspora erythraea, UniProt Q54137); chain IVGGEDANVQDHPFTVALVTPDGQQFCGGTLAAPNKVVTAAHCTVGSQPADINVVSGRTVMSSNEGTVSKVTNVWVHPEYQDAAKGFDVSVLTLEAPVKEAPIELAKADDAGYAPDTAATILGWGNTSEGGQQADHLQKATVPVNSDDTCKQAYGEYTPDAMVCAGVPEGGVDTCQGDSGGPMVVNNKLIGVTSWGEGCARPGKPGVYARVGAYYDVLMEQINAGAVSAR", "B4": "enzyme (Coprinopsis marcescibilis, UniProt A0A5C3KD26); chain FPQYGSLGGLEARQEEEATRGSTSTSGPRSRVPPPPPAPPRFTGAKLVDDRDHPWRPLRNGDIRGPCPGLNTLASHGYLPRDGVASPSDIIKAVQEGFNMETQTARFATYSAHILEGNLVTDLLSIGGKTSRTGPNPPPPATVAGISNHGSFEGDASLTRIDAFFGNHVAFNQPLFDQFVDFSNRFGNGFYNYTVGGELRFHRIQQSIETNPQFRIRGFRHFTAYAEAAFTANLFVDGRKTGADAHQLDMDSARSFFRDMRFPRGFFRPSSPTAGEGADIIFAAHPTQPGTNVGAVNNFVVDTSMGGLTDPCTFYVQFVNTTVRALYPNPTGVLRRNLIINLGFLYDSFAPPDCPQVFPYGQN", "note": "Each line is one published result; not all experiments were run side by side.", "UniProt P04079, sequence (whole entry, looked up)": "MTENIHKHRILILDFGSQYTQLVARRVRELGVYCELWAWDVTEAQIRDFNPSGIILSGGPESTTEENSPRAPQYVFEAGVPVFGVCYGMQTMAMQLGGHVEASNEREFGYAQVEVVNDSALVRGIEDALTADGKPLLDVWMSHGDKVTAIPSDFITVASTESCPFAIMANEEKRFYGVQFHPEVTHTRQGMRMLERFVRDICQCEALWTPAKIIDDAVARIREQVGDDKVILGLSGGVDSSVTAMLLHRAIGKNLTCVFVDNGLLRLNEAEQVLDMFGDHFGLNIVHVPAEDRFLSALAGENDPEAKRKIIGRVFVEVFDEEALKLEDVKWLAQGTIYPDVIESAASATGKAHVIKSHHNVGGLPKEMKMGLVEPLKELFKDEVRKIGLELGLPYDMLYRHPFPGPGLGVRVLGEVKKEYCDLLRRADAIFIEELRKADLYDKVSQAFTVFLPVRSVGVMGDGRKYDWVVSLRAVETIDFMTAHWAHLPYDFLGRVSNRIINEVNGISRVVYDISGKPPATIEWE", "UniProt P07914, sequence (whole entry, looked up)": "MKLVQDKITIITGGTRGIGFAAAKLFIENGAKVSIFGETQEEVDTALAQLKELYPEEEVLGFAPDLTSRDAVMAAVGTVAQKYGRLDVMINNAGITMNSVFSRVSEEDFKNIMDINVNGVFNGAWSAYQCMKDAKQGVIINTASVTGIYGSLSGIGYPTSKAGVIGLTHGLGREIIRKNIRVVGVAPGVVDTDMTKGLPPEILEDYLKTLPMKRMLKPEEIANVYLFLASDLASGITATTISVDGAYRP"}
{"Substance": "protein (Cecembia lonarensis, UniProt K1KZY4)", "substrate": "O=[N+]([O-])c1ccc(O[C@@H]2OC[C@H](O)[C@@H](O)[C@@H]2O)cc1", "pH": "pH 5.5", "temperature": "35 °C", "setting": "substrate inhibition", "Km [µM]": 4130}
{"Substance": "protein (Triticum aestivum, UniProt G9M5S8)", "substrate": "CC(C)=CCC/C(C)=C/CC/C(C)=C/CO[P@@](=O)(O)OP(=O)(O)O", "temperature": "30 °C", "Km [µM]": 1.7}
{"Substance": "protein fragment (Trypanosoma cruzi)", "substrate": "Nc1ncnc2c1ncn2[C@@H]1O[C@H](COP(=O)(O)OP(=O)(O)OP(=O)(O)O)[C@@H](O)[C@H]1O", "pH": "pH 6", "temperature": "room temperature", "added": "MnCl2 1 mM", "Km [µM]": 103}
{"Substance": "B1 (TylM1 H123A)", "substrate": "Cc1cn([C@H]2C[C@H](O)[C@@H](COP(=O)(O)OP(=O)(O)O[C@H]3O[C@H](C)[C@@H](O)[C@H](N)[C@H]3O)O2)c(=O)[nH]c1=O", "temperature": "25 °C", "added": "SAM", "Km [µM]": 670}
{"Substance": "RALBP1 (Homo sapiens, UniProt Q15311)", "substrate": "CCN(CC)CCNC(=O)c1c(C)[nH]c(/C=C2\\C(=O)Nc3ccc(F)cc32)c1C", "pH": "pH 7.4", "temperature": "37 °C", "Km [µM]": 7.2}
{"Substance": "B2 (protein)", "substrate": "Nc1ncnc2c1ncn2[C@@H]1O[C@H](COP(=O)(O)OP(=O)(O)OP(=O)(O)O)[C@@H](O)[C@H]1O", "pH": "pH 7", "temperature": "30 °C", "setting": "transporter, labelled substrate, apparent, not purified", "Km [µM]": 360}
{"Substance": "GMPS (Escherichia coli, UniProt P04079)", "substrate": "O=c1[nH]c(=O)c2ncn([C@@H]3O[C@H](COP(=O)(O)O)[C@@H](O)[C@H]3O)c2[nH]1", "setting": "apparent", "Km [µM]": 35.3}
{"Substance": "enzyme (Triticum aestivum, UniProt A0A6J4BJG4)", "substrate": "O=C1[C@@H](O[C@@H]2O[C@H](CO)[C@@H](O)[C@H](O)[C@H]2O)Oc2ccccc2N1O", "pH": "pH 7.2", "temperature": "30 °C", "Km [µM]": 318}
{"Substance": "B3 (trypsin)", "substrate": "NCCCC[C@H](NC(=O)c1ccccc1)C(=O)Nc1ccc([N+](=O)[O-])cc1", "pH": "pH 8", "temperature": "25 °C", "Km [µM]": 680}
{"Substance": "enzyme (Comamonas testosteroni, UniProt B7WQT1)", "substrate": "O=C(O)c1ccc(C(=O)O)cc1", "pH": "pH 8", "temperature": "25 °C", "setting": "apparent", "Km [µM]": 90}
{"Substance": "B4 (enzyme)", "substrate": "O=[N+]([O-])c1ccc2c(c1)OCO2", "Km [µM]": 241}
{"Substance": "BaiA1 (Clostridium scindens, UniProt P07914)", "substrate": "C[C@H](CCC(=O)SCCNC(=O)CCNC(=O)[C@H](O)C(C)(C)COP(=O)(O)OP(=O)(O)OC[C@H]1O[C@@H](n2cnc3c(N)ncnc32)[C@H](O)[C@@H]1OP(=O)(O)O)[C@H]1CC[C@H]2[C@@H]3[C@H](O)C[C@@H]4C[C@H](O)CC[C@]4(C)[C@H]3C[C@H](O)[C@]12C", "pH": "pH 8.7", "temperature": "37 °C", "added": "NAD+", "Km [µM]": 106}
{"note": "Excerpt of the above:"}
{"Substance": "B1 (TylM1 H123A)", "substrate": "Cc1cn([C@H]2C[C@H](O)[C@@H](COP(=O)(O)OP(=O)(O)O[C@H]3O[C@H](C)[C@@H](O)[C@H](N)[C@H]3O)O2)c(=O)[nH]c1=O", "temperature": "25 °C", "added": "SAM", "Km [µM]": 670}
